Results from different studies.
Each numbered part is a random draw from the data of one study; scales do not carry over between parts.

Study 1
Target: RING finger protein unkempt homolog, zinc fingers 1-6, GST-SBP tag (UNK, Homo sapiens, UniProt Q9C0B0, residues 30-357)
Technique: RNA Bind-n-Seq
Molecule type: RNA
Matrix: in vitro
Concentration: not given
Notes: RNA with constant flanks, human and mouse sites, ends assumed
Relative to: input RNA pool
Reading: higher = stronger binding
Constant ends, left off below: GGGAGUUCUACAGUCCGACGAUC … CAACAGAGGAUUGAGCAUCA
Target sequence (chain): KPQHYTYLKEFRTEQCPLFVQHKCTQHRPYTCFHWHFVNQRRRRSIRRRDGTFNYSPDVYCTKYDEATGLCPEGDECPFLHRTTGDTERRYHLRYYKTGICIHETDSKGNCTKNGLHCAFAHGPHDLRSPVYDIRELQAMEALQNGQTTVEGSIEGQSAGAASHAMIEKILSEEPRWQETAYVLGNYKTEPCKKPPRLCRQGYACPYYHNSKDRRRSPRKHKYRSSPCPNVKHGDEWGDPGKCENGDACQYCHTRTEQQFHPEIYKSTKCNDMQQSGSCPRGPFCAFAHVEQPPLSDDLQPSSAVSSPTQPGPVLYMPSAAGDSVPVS
`CCAGCUACAACCGUGGUCAGAACUUUGAAUGACAGAAGUAGUAUUGUAAUGGGAGAACCUAUUUCACAGUCAUCAUCUAAUUCUCAGUGAUUUUUUUUUUUAAAGAGAAUUCUAGAAUUC` has a bound/input enrichment of 0.29 ratio.
`UUCACCAAAAAAGACUCAGUUCCACCCAGCCACAAGAGGAUAAAAAGCCUUUUUAAACGCAGUAUUGCUGUAAACUGGACAGAACCAUUAAGAACCUAUUGAGUGGACAUUCUUGGUGAA` gave a bound/input enrichment of 0.098 ratio.
For `UAACUCUGGGACAGAAAAUACAGUCCUUCAUUUUUUUCCCUUUCCCUGUAAUCAGGAGGGGUAAGCCCUGCUCUUGCUCCCUGCCCUGUCUGGACAGGAGUGACGGGGACCCCACAGGAC`, the bound/input enrichment was 0.13 ratio.
The bound/input enrichment of `CCGUGCUCCAAAGUCAUCGUCCGGUUUCUCACUGUGAUGAUGAAGCAUGGUUACAUUGGCGAAUUUGAAAUCAUUGAUGACCACAGAGCUGGGAAAAUUGUUGUGAACCUCACAGGCAGG` is reported as 0.139 ratio.
With `CGUGGGAAAACCAGAGCGGAGACAAUGGGGCCGAUGGGCUGGAUGAAGUGUCCUCUUGCUGGUACAAAUAAAAGAUUCCUAAUUAACACAAUUAAGAACACACUGCCCUCCCAUAAAGAG` the bound/input enrichment was 0.259 ratio.
The bound/input enrichment of `CCAGACGACGGACUCACAGCACAGCAGCUCUUCAACUGCGGAGACGGCCUCACCUACAAUGACUUUCUCAUUCUCCCUGGGUACAUCGACUUCACUGCAGACCAGGUGGACCUGACUUCU` is reported as 0.178 ratio.
`AGCCGCCCCUUCGCCAAGGUCACCGUCUGCUUCCCACCUGACCCUACUGCCCCGGCCUCCGCCUGGAAGCCGGCUGGGCUCCCACCUCCCGCCUUCCGCCGCUCUGAGCCCUUCCUGGCA` has a bound/input enrichment of 0.194 ratio.
The bound/input enrichment of `AAAGCAAUAAAUGUAGAUCUCCAGAGUGACGCUGCUCUGCAGGUGGACAUUUCAGACGCGCUCAGUGAGAGGGAUAGAGUCAAGUUCACCGUUCACACAAAGAGUUCAUUGCCAAAUUUU` is reported as 0.13 ratio.
The bound/input enrichment of `GGCUCCAUUGCCUUGAAGAAAGUGAAAUUCCAAGCUAAGCUAGAACACGAGUACAUCCAGAACUUCAAAAUACUACAAGCAGGUUUUAAGAGAAUGGGUGUUGACAAAAUAAUUCCUGUG` is reported as 0.254 ratio.
For `GAGGAGGGCAAGGAGAUCCUGGUAGGAGAUGUGGGGCAGACUGUGGACGACCCCUACACCACUUUUGUCAAGAUGCUGCCAGACAAGGACUGCCGCUAUGCACUCUAUGAUGCAACCUAU`, the bound/input enrichment was 0.185 ratio.
`CCGUGGCGCUCCAACUUCCUUCCCUGCCUUUUCCCUCCAAGCUCCUAUUUUACUGUGUCAGCUGGAAGGAAACCUUUCCCUCUUGGGACCUCUUUACCCUCUGUGACCUGUGGGGUUAGA` has a bound/input enrichment of 0.46 ratio.

Study 2
Target: RNA binding protein fox-1 homolog 2, RRM domain, GST-SBP tag (RBFOX2, Homo sapiens, UniProt O43251-10, residues 100-194)
Technique: RNA Bind-n-Seq
Molecule type: RNA
Matrix: in vitro
Concentration: 365 nM
Notes: natural RNA segment, single round, ends assumed
Relative to: no-protein control
Reading: higher = stronger binding
Constant ends, left off below: GGGAGUUCUACAGUCCGACGAUC … UGGAAUUCUCGGGUGCCAA
Target sequence (chain): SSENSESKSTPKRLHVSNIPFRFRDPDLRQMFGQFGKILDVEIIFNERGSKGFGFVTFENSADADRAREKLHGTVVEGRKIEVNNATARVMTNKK
For `CCCUUCAGCGCUAGACCAUCAAGUUGGCAUAAAGAAAAAAAAAUGGGUUUGGGCCCUCAGAACCCUGCCCUGCAUCUUUGUACAGCAUCUGUGCCAUGGAUUUUGUUUUC`, “RBNS enrichment (R)” read 0.549.
Under “RBNS enrichment (R)”, `GAAGCAGUUGCUCCACUGGAAUUUCUAUAAAGCUGGGUAAAGGGUUAGCAGAAUUACAGAUCUUAAGUACUAACUGCAGUCCAAGAUGGAAGAGUACUCAGCAGCCACUG` is recorded as 0.593.
Under “RBNS enrichment (R)”, `UUUCUUUAUUGCUACAGAGUAUCCUCUAUAAGUUAUUAAACGAGUGUAAUGGUAUAAUGCCCUUCCAUCACACAACAGGACACCACCCCAGUUUUGUUUUCUGGGUUUCU` is recorded as 0.623.
`GGGAAAGCAAAGACCAUAAGCACCAUUUUGCAGUUCUAUCUUUUUUUCCAGUUAGCCUAUGUAACCAAGUAUGCAUAACAUAACAGUAUUACCCUUUCACUCUUCUCACA`: “RBNS enrichment (R)” 0.523.
Under “RBNS enrichment (R)”, `CCUUCUCCUUGGCGUGGCUUACUUCAAGGGGCAGUGGGUAACCAAGUUUGACUCGAGAAAGACGACCCUCCAGGAUUUUCAUUUGGACGAGGACAGGACCGUGAGAGUCC` is recorded as 0.282.
`ACCCCCUUCCUGGGCAUCCGUUCGGGUUUUCUAACCGUUGUCUUGUUCUGGGGUGAGCGGGGAGCGCAUGCAGAGAUCCCAAGGCCUAUGUCUGGAGGGUACCAACUCCU`: “RBNS enrichment (R)” 1.9.
`UGAUUGACCUUUGCAUACCCUGGAAAGCCAGGGUGUGAGUGGGGUGGUUGGGAGUGGUGCCAGUUGAACAGCAGAUUCUGCUUCUUGUCACUGUUUCAAAAGCGUCAACU`: “RBNS enrichment (R)” 0.196.
For `AGAUCAGAAAGAAACCUUUUGUAGCAAUAUCAAGAAUCUAGUUUCAUCUGAGAACUUCUGAUUAGCUCUCAGUCUUCAGCUCUAUUUAUCUUAGGAGUUUAAUUUGCCCU`, “RBNS enrichment (R)” read 0.342.
For `AGCACCACAGUGACCUAAGCGGCUCACUUCUGAGCCUCCUCUUCAGUUUCCUGGGGGGGGGGGGGUUCCUCCUGACUUCGUUCUGUUCUGUCUUCACUUCCUCUUCCAUC`, “RBNS enrichment (R)” read 0.172.
Under “RBNS enrichment (R)”, `AUGAUUGCUGCUGACAGGAACACCUGGAUCUCAAGAGCUUUUUAUGACAGGUGGACAUCUGUGUCAUUUUUCCUUGUUCCCUCAUCCAUCCAUCCAUCCAUCCAUCCAUC` is recorded as 0.502.
`UGGGUUCACAUCUGUGUUUUGCAUGUCCAGCAGUGGGGCUCUGGACUCCCUAGCGCCCUGGUUGUGGUGACAGUCCAACAAGUUGAUAUUAUAAAGCACUUUAUAACACC` — result for “RBNS enrichment (R)”: 36.1.
`UUAUUUUAGUCUUUUAUAAAUAAACUGAGUUUUUGAUAGGGUAACUUAUGGAUUGACUAGAUUCAUAUCACUUUCUCCUCUAAAAUAUUGUAGUAUUUUCUUAUAGUUAU`: “RBNS enrichment (R)” 0.74.

Study 3
Target: Centromere-binding protein 1, full length, His-tagged (CBF1, Saccharomyces cerevisiae, UniProt P17106, residues 1-351)
Sequence of UniProt P17106 (whole entry, looked up): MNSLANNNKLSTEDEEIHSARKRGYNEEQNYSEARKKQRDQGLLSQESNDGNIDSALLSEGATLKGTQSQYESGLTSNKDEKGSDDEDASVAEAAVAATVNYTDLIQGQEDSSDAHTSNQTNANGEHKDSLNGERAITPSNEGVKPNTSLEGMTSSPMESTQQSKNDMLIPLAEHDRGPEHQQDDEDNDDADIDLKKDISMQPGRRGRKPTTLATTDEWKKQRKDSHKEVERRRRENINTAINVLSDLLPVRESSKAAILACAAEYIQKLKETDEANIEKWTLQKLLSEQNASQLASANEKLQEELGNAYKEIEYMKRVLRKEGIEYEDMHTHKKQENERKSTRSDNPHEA
Technique: competition protein-binding microarray
Molecule type: double-stranded DNA, one strand shown
Matrix: in vitro
Concentration: 2 µM
Notes: whole 60-bp probe, lowest competitor level
Together with: Pho4 competitor, 0.05 µM
Reading: higher = stronger binding
Constant ends, left off below: … GTCTTGATTCGCTTGACGCTGCTG
`CTTCCAAATGATGTTTTCGTGCGATAACTTAAGTAT` gave a fluorescence intensity of 85.4 a.u.
For `CATACCCAACCTTGTCACATGACTTAAGATATTTGT`, the fluorescence intensity was 4090 a.u.
`ACCAAGCATCAACACCATGTGCATACCATACCGCTA` has a fluorescence intensity of 144 a.u.
The fluorescence intensity of `AAATTACTAAGTTGTCACCCGACTTACCCCGTATGA` is reported as 72 a.u.
The fluorescence intensity of `GTTATGGAGATAACACACGTGCCGAGAGGAAAATAG` is reported as 1490 a.u.
`AATTGGAGAACACATTTCGTGGGTATTTCGACCCAA` has a fluorescence intensity of 67 a.u.
`ATATATATTTCATTGAATGGATATATGAAACGTTTA` has a fluorescence intensity of 126 a.u.
`AAACAAATGGCAGTCCATGTGAAAAGCTGAGACAAA` has a fluorescence intensity of 75 a.u.
With `ATGAGATACTTGAAACACGTTTCAAGAAGATTCAAG` the fluorescence intensity was 107 a.u.
The fluorescence intensity of `TGTTGCATACGTAAACATGTGTAGATTATTCTAAAT` is reported as 130 a.u.
With `AAAGCGGTAATTTGCTATGTGGGTGCAGATATCTAT` the fluorescence intensity was 77.5 a.u.
For `CAATTTGAAGTCCGTCACGGGAGGCAGTTGTTTGGT`, the fluorescence intensity was 208 a.u.
`AATAATATATCTCACCACGTGGGACATTGGGCACTT` gave a fluorescence intensity of 1300 a.u.
With `TATGTTTGCTACTGTCACACTGCCTTTCAATACGCT` the fluorescence intensity was 77.2 a.u.

Study 4
Target: Interferon regulatory factor 5, full length, phosphomimetic (IRF5, Homo sapiens, UniProt Q13568-2, residues 1-514, K96S/S451D/S453D/S456D/S462D)
Technique: protein-binding microarray
Molecule type: double-stranded DNA, one strand shown
Matrix: in vitro
Concentration: 250 nM
Notes: 60-bp whole probe
Together with: salmon DNA 0.4 mg/ml
Relative to: random background probes
Reading: higher = stronger binding
Constant ends, left off below: GCCTAGCAC … GTCTTGATTCGCTTGACGCTGCTG
`TTAGCTTTCGGGTATCGATTAGTGCTA` gave a log fluorescence of 10.4 z-score.
With `TTAGAACTGAGTCTCAATTAGTGCTAG` the log fluorescence was 0.263 z-score.
With `GACGGTTTCGGGTATCGGTACGTGCTA` the log fluorescence was 8.67 z-score.
`CTAGATTTCAGTTCCGATTAGTGCTAG` has a log fluorescence of 2.82 z-score.
`TACTTTCTACTTCTCTTTTTGTGCTAG` has a log fluorescence of 6.31 z-score.
`TTAGGTTTCGGAATGGGTTAGTGCTAG` has a log fluorescence of 7.52 z-score.
`GCATTTTTTTTTTCTACTTCGTGCTAG` gave a log fluorescence of 1.02 z-score.
`TTAGGACTGGGGTATCGCTTAGTGCTA` has a log fluorescence of 0.0128 z-score.
For `TCAATTATATATTTATGACTGTGCTAG`, the log fluorescence was 0.399 z-score.
For `GACGATTTCGGTATCGAGACGTGCTAG`, the log fluorescence was 8 z-score.
For `GACGATCTCAGACTGGAGGCGTGCTAG`, the log fluorescence was -0.488 z-score.
The log fluorescence of `CATAGAGATGCCTGTCCTCTGTGCTAG` is reported as -0.24 z-score.
`TTAGAACTGGAGTATCGATTAGTGCTA` gave a log fluorescence of 4.91 z-score.
With `GCTCCAGGAAGCCTTGCCTGGTGCTAG` the log fluorescence was -0.67 z-score.
The log fluorescence of `GCCGGTCTCGGACTGGGGACGTGCTAG` is reported as -0.404 z-score.

Study 5
Target: Histone acetyltransferase KAT6A, winged helix 2, GST fusion (KAT6A, Homo sapiens, UniProt Q92794, residues 85-181)
Technique: protein binding microarray
Molecule type: double-stranded DNA, one strand shown
Matrix: in vitro
Concentration: not given
Notes: 8-mer, flanks averaged, mean of 2 arrays, mostly near background
Relative to: not given
Reading: higher = stronger binding
Construct (chain): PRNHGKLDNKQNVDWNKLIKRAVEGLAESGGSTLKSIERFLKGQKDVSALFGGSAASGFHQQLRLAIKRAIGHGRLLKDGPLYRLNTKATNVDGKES
With `ACCATGAG` the E-score was -0.0947.
`ACGTCAGT` gave an E-score of -0.103.
The E-score of `AGCATTTC` is reported as 0.0233.
The E-score of `ACATGGGG` is reported as -0.0529.
With `ACGAATCT` the E-score was -0.0392.
The E-score of `CCCTTTAG` is reported as -0.0253.
With `CTGAGTCA` the E-score was -0.0976.
`GCGGATTA` has an E-score of 0.0306.
With `AACGTGAG` the E-score was -0.042.
`AACTCCAC` gave an E-score of 0.0174.
The E-score of `AGTAGATC` is reported as -0.066.
`AAGCCGGC` has an E-score of 0.175.
With `AAAGGAGT` the E-score was 0.0308.
For `GGACCGTA`, the E-score was -0.138.
With `ACGGTGTA` the E-score was -0.142.
With `TATAGTGA` the E-score was -0.107.
`AACATGCG` has an E-score of -0.109.
`AAGTCATC` has an E-score of -0.089.
The E-score of `ACATTAGC` is reported as -0.00456.
For `AAGGGAGT`, the E-score was -0.124.
`AAGCCCCA` has an E-score of -0.0997.
The E-score of `AAGATAGT` is reported as -0.106.
